Published values gathered from unrelated publications.
Values joined by “and” are separate records of one study, mostly repeats; a detail may differ. Numbers after ± are the reported error.
CACNA1C: Voltage-dependent L-type calcium channel subunit alpha-1C (CACNA1C, Homo sapiens, UniProt Q13936)
Sequence of UniProt Q13936 (whole entry, looked up): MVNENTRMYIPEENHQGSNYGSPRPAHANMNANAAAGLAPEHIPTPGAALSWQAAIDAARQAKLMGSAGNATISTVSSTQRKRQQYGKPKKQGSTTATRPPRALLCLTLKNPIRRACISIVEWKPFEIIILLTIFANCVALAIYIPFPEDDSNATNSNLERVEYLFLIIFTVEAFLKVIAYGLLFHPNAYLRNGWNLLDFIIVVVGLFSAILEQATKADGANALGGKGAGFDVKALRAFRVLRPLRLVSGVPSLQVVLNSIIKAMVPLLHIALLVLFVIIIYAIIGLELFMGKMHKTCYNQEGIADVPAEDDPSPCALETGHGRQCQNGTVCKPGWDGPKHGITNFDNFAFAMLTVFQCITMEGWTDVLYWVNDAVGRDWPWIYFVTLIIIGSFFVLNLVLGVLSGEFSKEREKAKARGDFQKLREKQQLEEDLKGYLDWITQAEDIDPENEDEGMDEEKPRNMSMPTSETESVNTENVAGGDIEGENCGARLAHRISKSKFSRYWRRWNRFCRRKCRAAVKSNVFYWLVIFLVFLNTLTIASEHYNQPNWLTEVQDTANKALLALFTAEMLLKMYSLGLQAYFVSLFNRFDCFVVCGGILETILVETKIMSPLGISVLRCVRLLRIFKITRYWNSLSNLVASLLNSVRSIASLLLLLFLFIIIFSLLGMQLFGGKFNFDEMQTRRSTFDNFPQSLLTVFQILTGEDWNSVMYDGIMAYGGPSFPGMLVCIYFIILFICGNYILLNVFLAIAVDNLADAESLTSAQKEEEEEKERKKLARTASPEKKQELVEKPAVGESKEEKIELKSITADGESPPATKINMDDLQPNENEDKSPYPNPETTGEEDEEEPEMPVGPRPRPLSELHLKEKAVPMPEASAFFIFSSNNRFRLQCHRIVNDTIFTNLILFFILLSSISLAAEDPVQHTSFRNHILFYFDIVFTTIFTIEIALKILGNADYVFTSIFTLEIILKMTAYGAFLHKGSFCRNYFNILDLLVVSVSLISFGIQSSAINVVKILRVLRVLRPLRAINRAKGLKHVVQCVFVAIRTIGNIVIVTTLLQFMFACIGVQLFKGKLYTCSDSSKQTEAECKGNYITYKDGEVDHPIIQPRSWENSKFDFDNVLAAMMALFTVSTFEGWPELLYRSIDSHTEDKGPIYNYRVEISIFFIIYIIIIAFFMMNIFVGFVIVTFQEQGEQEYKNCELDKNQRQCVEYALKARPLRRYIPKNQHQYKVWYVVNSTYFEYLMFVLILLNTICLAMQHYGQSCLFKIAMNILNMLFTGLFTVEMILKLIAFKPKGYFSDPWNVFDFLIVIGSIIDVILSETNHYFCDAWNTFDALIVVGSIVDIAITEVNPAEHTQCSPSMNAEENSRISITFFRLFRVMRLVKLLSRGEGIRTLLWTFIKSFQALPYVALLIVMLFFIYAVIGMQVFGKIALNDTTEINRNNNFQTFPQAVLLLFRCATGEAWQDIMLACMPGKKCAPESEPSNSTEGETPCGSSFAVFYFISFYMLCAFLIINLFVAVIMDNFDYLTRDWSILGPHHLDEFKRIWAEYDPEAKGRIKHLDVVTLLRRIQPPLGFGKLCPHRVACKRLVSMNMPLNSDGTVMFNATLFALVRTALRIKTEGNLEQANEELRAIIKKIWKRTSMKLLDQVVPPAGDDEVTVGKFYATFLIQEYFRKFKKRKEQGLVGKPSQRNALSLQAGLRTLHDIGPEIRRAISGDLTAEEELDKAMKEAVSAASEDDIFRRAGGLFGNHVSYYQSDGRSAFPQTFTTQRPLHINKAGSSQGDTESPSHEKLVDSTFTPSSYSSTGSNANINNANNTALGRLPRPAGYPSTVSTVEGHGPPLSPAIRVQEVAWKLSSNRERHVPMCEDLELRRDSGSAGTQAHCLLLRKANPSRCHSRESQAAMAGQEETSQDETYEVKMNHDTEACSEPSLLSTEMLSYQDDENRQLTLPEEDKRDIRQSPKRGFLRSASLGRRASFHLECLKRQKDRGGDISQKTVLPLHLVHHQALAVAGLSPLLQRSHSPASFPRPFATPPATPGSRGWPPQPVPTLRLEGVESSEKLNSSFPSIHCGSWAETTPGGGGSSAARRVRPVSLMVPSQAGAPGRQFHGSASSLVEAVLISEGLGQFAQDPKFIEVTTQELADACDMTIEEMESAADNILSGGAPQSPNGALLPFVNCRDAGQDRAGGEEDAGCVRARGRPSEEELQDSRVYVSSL
CYP3A4: Cytochrome P450 3A4 (CYP3A4, Homo sapiens, UniProt P08684)
Sequence of UniProt P08684 (whole entry, looked up): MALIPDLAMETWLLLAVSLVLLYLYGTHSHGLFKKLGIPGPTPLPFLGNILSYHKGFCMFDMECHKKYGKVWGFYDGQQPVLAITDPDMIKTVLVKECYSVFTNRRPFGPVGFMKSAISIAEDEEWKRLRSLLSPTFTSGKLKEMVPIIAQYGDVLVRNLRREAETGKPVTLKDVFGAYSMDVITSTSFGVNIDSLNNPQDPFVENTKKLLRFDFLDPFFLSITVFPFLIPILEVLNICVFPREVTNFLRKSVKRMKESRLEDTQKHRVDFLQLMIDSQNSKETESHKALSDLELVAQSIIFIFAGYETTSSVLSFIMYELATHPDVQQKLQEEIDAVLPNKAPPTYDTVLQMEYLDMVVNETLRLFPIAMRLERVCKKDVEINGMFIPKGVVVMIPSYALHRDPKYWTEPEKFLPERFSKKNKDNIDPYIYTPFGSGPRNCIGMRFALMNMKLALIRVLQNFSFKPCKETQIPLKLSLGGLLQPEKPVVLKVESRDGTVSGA
Sequence of UniProt P05178 (whole entry, looked up): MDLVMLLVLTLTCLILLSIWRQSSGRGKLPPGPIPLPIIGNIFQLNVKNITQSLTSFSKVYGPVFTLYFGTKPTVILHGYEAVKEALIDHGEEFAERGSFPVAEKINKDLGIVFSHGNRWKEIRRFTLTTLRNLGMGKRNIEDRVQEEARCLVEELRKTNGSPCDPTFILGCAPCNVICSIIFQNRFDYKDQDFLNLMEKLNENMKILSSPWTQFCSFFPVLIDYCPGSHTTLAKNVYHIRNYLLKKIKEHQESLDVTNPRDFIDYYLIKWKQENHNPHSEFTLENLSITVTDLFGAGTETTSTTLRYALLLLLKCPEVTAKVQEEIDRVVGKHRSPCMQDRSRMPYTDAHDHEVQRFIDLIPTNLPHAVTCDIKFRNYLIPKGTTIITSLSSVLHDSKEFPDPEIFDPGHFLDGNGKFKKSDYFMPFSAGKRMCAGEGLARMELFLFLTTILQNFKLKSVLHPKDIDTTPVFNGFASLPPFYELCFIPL
Sequence of UniProt O60502 (whole entry, looked up): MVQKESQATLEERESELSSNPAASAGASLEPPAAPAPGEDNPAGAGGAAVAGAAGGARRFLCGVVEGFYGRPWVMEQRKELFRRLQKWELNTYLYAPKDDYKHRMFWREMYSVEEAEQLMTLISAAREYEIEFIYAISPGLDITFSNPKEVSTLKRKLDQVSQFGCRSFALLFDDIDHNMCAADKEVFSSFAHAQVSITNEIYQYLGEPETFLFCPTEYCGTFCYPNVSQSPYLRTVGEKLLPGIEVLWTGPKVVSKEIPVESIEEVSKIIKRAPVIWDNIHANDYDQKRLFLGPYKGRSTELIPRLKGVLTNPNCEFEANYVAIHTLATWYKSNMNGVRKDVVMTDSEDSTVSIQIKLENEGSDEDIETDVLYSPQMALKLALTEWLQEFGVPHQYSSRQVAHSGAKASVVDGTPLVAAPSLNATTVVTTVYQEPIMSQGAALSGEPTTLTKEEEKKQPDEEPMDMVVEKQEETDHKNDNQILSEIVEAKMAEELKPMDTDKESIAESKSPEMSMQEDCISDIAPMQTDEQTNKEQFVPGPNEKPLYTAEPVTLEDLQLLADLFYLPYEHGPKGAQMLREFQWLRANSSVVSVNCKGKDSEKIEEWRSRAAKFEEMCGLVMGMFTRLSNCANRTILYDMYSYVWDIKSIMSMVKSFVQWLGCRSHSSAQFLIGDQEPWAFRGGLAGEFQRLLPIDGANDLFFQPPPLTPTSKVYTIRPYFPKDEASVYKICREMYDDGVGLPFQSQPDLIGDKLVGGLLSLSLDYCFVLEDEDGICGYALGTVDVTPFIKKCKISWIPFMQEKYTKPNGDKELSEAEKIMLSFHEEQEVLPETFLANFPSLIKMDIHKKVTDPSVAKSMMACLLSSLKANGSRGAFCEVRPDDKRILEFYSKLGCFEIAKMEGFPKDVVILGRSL
Sequence of UniProt P14780 (whole entry, looked up): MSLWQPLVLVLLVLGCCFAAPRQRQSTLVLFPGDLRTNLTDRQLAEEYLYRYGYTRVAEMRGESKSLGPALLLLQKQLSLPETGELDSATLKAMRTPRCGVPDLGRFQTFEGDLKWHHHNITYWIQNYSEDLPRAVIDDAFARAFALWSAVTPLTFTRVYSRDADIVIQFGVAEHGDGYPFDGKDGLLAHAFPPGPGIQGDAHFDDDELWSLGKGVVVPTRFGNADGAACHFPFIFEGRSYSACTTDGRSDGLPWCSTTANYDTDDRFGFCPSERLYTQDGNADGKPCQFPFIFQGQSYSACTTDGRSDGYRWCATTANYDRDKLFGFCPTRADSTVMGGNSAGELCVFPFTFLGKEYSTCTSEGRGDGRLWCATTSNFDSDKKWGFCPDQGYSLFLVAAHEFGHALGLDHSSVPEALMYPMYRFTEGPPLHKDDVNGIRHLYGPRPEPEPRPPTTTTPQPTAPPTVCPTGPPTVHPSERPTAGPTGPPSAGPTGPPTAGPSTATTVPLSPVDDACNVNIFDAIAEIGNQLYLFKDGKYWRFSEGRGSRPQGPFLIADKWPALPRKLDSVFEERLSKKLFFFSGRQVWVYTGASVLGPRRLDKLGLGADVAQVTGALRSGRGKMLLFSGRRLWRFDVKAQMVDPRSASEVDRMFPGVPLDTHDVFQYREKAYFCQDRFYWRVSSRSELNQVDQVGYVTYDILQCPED
Sequence of UniProt P16257 (whole entry, looked up): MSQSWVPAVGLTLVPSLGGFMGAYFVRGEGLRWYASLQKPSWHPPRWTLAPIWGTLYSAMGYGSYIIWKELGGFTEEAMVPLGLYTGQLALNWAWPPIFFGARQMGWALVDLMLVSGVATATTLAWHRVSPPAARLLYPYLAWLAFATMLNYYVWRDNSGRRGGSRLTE

| SMILES | target | assay | test system | conditions | scale | endpoint | value |
| --- | --- | --- | --- | --- | --- | --- | --- |
| CCOc1c(C(C)(C)O)sc2cnc(Nc3ccc(N4CCC(N5CC6(COC6)C5)CC4)cc3OC)nc12 | CACNA1C | ion current, inhibitor, patch clamp |  | 10 µM |  | inhibition | 14% |
| O=C(CSc1nnc(N2CCOCC2)n1-c1ccccc1)NCc1cccc(NC(=O)C2CC2)c1 | CACNA1C | calcium signal, fluorescence |  |  |  | IC50 | > 30 µM |
| COC(=O)CN1CCN(CC(=O)OC)CCN(Cc2cc(-c3nc4ccccc4s3)cc(OC)c2O)CC1 | copper(II) ion | metal chelation, spectrophotometric titration | aqueous solution | 50 µM, pH 7.4, together with: Cu(II) 50 µM | higher = stronger binding | pCu | 10.3 |
| CN(O)C(=O)CCC(=O)NCCCN(CCCCN(CCCNC(=O)CCC(=O)N(C)O)C(=O)CCC(=O)N(C)O)C(=O)CCC(=O)N(C)O.[89Zr] | TF (Homo sapiens, UniProt P02787) | transchelation |  | concentration not given, 7 days, 37 °C, together with: 10 equiv apo-transferrin |  | transferrin binding | 13% |
| CN(C(=O)c1ccn2ncc(-c3ccc(C(N)=O)cc3)c2c1)c1ccc(C#N)cn1 | major cytochrome P450 isoenzymes |  |  | concentration not given |  | inhibition | no inhibition |
| CC(C)C[C@H](NC(=O)[C@@H]1CCCN1)C(=O)N[C@@H](CO)C(=O)N[C@@H](CC(C)C)C(=O)N[C@@H](CCCNC(=N)N)C(=O)N[C@@H](CO)C(=O)N[C@@H](CCCCN)C(=O)O | MMP9 (Homo sapiens, UniProt P14780) | substrate, HPLC |  | 500 µM, 72 h, pH 7.5, 37 °C |  | remaining substrate | < 10% |
| O=C(O)[C@@H]1C[C@@H](O)CN1C(=O)[C@@H]1CCCN1 | iron(III) |  |  | MA2 complex, I 0.15 M NaCl |  | ΔH of complex formation | 1.83 kcal/mol |
| O=C(NCCCc1cccnc1)C(Cc1ccccc1)SCC(Cc1ccccc1)NC(=O)C(F)(F)F (centres unmarked) | CYP3A4 | thermal stability |  |  |  | ΔTm | 5.8 °C |
| COc1cc(-c2nc3ccccc3s2)cc(CN2CCN(CC(=O)O)CCN(CC(=O)O)CC2)c1O | copper(II) ion | metal chelation, spectrophotometric titration | aqueous solution | 50 µM, pH 7.4, together with: Cu(II) 50 µM | higher = stronger binding | pCu | 12.4 |
| CCCCCCCCCCCCCCCC(=O)OCC(CSC[C@H](N)C(=O)N[C@@H](CO)C(=O)N[C@@H](CCCCN)C(=O)N[C@@H](CCCCN)C(=O)N[C@@H](CCCCN)C(=O)N[C@@H](CCCCN)C(=O)NCCCCCC(=O)N[C@@H](CCCCN)C(=O)N[C@@H](CC(C)C)C(=O)N[C@H](C(=O)N[C@@H](Cc1ccccc1)C(=O)N[C@@H](Cc1ccccc1)C(=O)N[C@@H](Cc1ccc2ccccc2c1)C(=O)O)C(C)C)OC(=O)CCCCCCCCCCCCCCC (some centres unmarked) | Amyloid-beta precursor protein, fibrillar amyloid-beta (APP, Homo sapiens, UniProt P05067) | dynamic light scattering |  | 20 µM, 18.5 h, equimolar with amyloid-beta, whole sample |  | hydrodynamic diameter | ~218 nm |
| [64Cu+2].c1ccc(CNCc2ccc(CN3CCCN4CCNCCCN(CC4)CC3)cc2)nc1 | CXCR4 |  | NOD/SCID mouse, U87 and U87-stb-CXCR4 xenografts, spleen | iv, 480 min, ex vivo |  | tissue uptake | 12.2 ± 1.95 %ID/g |
| CNC(=S)N/N=C/c1ccccn1 | Zn2+ complex | potentiometric titration |  | 25 °C |  | log stability constant | 17.4 |
| CN(C(=O)c1ccc2ccccc2c1)[C@@H]1NC(=O)[C@H](Cc2ccccc2)NC(=O)[C@H](NC(=O)[C@@H](N)Cc2ccc(Cl)cc2)CSSC[C@@H](C(=O)N[C@@H](Cc2ccc3ccccc3c2)C(N)=O)NC(=O)[C@H](Cc2ccccc2)NC(=O)[C@H](CCCCN)NC1=O | trypsin | substrate, RP-HPLC |  | concentration not given, 6 days, pH 8.1 |  | hydrolysis | 55% |
| NS(=O)(=O)Nc1ncnc(OCCOc2ncc(Br)cn2)c1-c1ccc(Br)cc1 | Cytochrome P450 2C6 (Cyp2c6, Rattus norvegicus, UniProt P05178) | substrate, refers to: compound formation | rat, male | pH 7.4, mRNA abundance scaled |  | contribution to total CLint | < 1% and 0.1% |
| NC(=S)N/N=C/c1ccccn1 | Zn2+ complex | potentiometric titration |  | 25 °C |  | log stability constant | 17.8 |
| CC(C)C[C@@H]1NC(=O)[C@H](C)NC(=O)[C@H](CC2CCN(C(=N)N)CC2)NC(=O)[C@H](Cc2ccccc2)NC(=O)[C@H](CCCNC(=N)N)NC(=O)[C@H](C)NC(=O)[C@@H]2CCCN2C(=O)[C@@H](N)CSSC[C@@H](C(=O)O)NC(=O)[C@H](Cc2c[nH]c3ccccc23)NC1=O | plasmin | substrate |  | 1 h, together with: plasmin 2 nM |  | cleavage | ≤ 0.12% |
| COc1ccc2cc(NC(=O)c3cc(-c4cccnc4)nc4ccccc34)ccc2c1 | CYP3A4 | inhibitor |  |  |  | Ki | 0.42 µM |
| CC(C)(C)OC(=O)NC(CSC(Cc1ccccc1)C(=O)NCCCc1cccnc1)CC1c2ccccc2-c2ccccc21 (mixture of isomers) | CYP3A4 |  |  | 16 µM, 2 h, together with: 10 mM H2O2 | baseline: ligand-free enzyme | heme destroyed | 35% |
| CCc1cc(C)nc2c(CC(=O)N(CC)CC)c(-c3ccc(OCC[18F])cc3)nn12 | Tspo (Rattus norvegicus, UniProt P16257) | two-tissue compartment model | rat C6 glioma model, brain | dose not given, 60 min dynamic PET |  | total distribution volume | 1.94 ± 0.279 mL/cm3 |
| NC(=S)N/N=C/c1cc(Cl)ccc1O | Zn2+ complex | potentiometric titration |  | 25 °C |  | log stability constant | 15.9 |
| Br.Br.Br.O=c1c(O)cccn1CCN1CCN(CCn2cccc(O)c2=O)CCN(CCn2cccc(O)c2=O)CC1 | iron(III) |  |  |  |  | pH of complex dissociation onset | > 10.4 |
| CC(=O)Nc1ncc(CN2CC[C@H](Oc3cccc([18F])n3)C[C@@H]2C)s1 | Protein O-GlcNAcase (OGA, Homo sapiens, UniProt O60502) | PET | healthy human, striatum and cerebellum | baseline |  | peak uptake | ~4 SUV |
| CC(=O)N(c1ccccc1)c1nc(COC(=O)[C@H]2CC(=O)N(c3cccc4ccccc34)C2)cs1 | CACNA1C | calcium signal, fluorescence |  |  |  | IC50 | > 30 µM |
| CC(C)(C)OC[C@@H](NC(=O)CNC(=O)CN1CCN(CC(=O)OC(C)(C)C)CCN(CC(=O)OC(C)(C)C)CCN(CC(=O)OC(C)(C)C)CC1)C(=O)N[C@H](COC(C)(C)C)C(=O)NCC(=O)NCC(=O)NCC(=O)N[C@@H](Cc1ccccc1)C(=O)O | Cathepsin B (CTSB, Homo sapiens, UniProt P07858) | substrate, LC/MS |  | 48 h, pH 5.0, room temperature |  | metabolized peptide | 78% |
| COc1cc(-c2nc3ccccc3s2)cc(CN2CCN(CC(=O)OC(C)(C)C)CCN(CC(=O)OC(C)(C)C)CC2)c1O | copper(II) ion | metal chelation, spectrophotometric titration | aqueous solution | 50 µM, pH 6.6, together with: Cu(II) 50 µM | higher = stronger binding | pCu | 10.5 |
| O=C(CCC(=O)OCCNC(=O)[C@@H](Cc1ccccc1)NC(=O)[C@@H](Cc1ccccc1)NC(=O)CCNc1ccc([N+](=O)[O-])c2nonc12)NCCS(=O)(=O)O | porcine liver esterase | substrate |  | 1.0 wt%, 1 min, pH 7.4, together with: esterase 1 U/mL |  | conversion | 2.5% |
| [64Cu+2].c1cnc(CNCc2ccc(CN3CCCN4CCNCCCN(CC4)CC3)cc2)nc1 | CXCR4 |  | NOD/SCID mouse, U87 and U87-stb-CXCR4 xenografts, spleen | iv, 60 min, ex vivo |  | tissue uptake | 12.9 ± 1.18 %ID/g |
| O=c1c(/C=N/NC(=S)N/N=C/c2ccccn2)coc2ccccc12 | Zn2+ complex | potentiometric titration |  | 25 °C |  | log stability constant | 18.4 |
| COc1cc(-c2nc3ccccc3s2)cc(CN2CCN(CC(=O)OC(C)C)CCN(CC(=O)OC(C)C)CC2)c1O | copper(II) ion | metal chelation, spectrophotometric titration | aqueous solution | 50 µM, pH 7.4, together with: Cu(II) 50 µM | higher = stronger binding | pCu | 11.1 |
